Assay results pooled from the literature.
Compare with care: the assays were run in different laboratories. ± gives the spread as reported. In brackets after ≈: the same amount, converted by molar mass.

Structure (SMILES) = COc1ccc(-c2cc(C(F)(F)F)c3c(N)c(C(=O)N4CCCCC4)sc3n2)cc1; target or system = Mycobacterium tuberculosis; system = H37Rv wild type; conditions = 120 h; endpoint = IC90; result = inactive
Structure (SMILES) = COc1c(CCC[P+](c2ccccc2)(c2ccccc2)c2ccccc2)cc2c(c1OC)OCO2.[I-]; target or system = HT-29; assay = SRB; endpoint = GI50; result = -5.97 log M
Structure (SMILES) = COc1c(C)c2c(c(O)c1C/C=C(\C)CCC(=O)O)C(=O)OC2; target or system = SF-268; assay = cell proliferation; system = brain cancer; endpoint = IC50; result = 575 nM
Structure (SMILES) = CC(=O)OCC[N+](C)(C)C; target or system = muscarinic M2 receptor, bullfrog; assay = IK(ACh) current, agonist, whole-cell patch clamp; system = bullfrog atrial myocytes; endpoint = EC50; result = 101 nM
Structure (SMILES) = CC[C@H](C)[C@H](NC(=O)[C@H](C)NC(=O)[C@H](CCCCN)NC(=O)[C@H](CC(C)C)NC(=O)[C@H](C)NC(=O)[C@@H](NC(=O)[C@H](Cc1c[nH]cn1)NC(=O)[C@H](CC(C)C)NC(=O)[C@@H](NC(=O)[C@@H](NC(=O)[C@H](CCCCN)NC(=O)[C@H](C)NC(=O)[C@H](C)NC(=O)[C@H](CO)NC(=O)[C@H](CCCCN)NC(=O)[C@H](Cc1ccccc1)NC(=O)[C@@H](NC(=O)[C@H](CCCCN)NC(=O)[C@H](CC(C)C)NC(=O)[C@H](Cc1ccccc1)NC(=O)[C@H](CO)NC(=O)[C@H](CCCCN)NC(=O)[C@H](Cc1c[nH]c2ccccc12)NC(=O)[C@H](CCCCN)NC(C)=O)[C@@H](C)O)[C@@H](C)O)C(C)C)[C@@H](C)O)C(=O)N[C@@H](CO)C(=O)N[C@@H](CO)C(N)=O; target or system = Pseudomonas aeruginosa; system = IPM-R; conditions = 81 strains; endpoint = MIC geometric mean; result = 7.16 µg/mL (≈ 2.44 µM)
Structure (SMILES) = O=C(O)c1ccc(-c2ccc(C(=O)O)cc2/N=N/c2cccc(Br)c2)cc1; target or system = Schistosoma mansoni; assay = microscopic viability scoring; system = newly transformed schistosomula; conditions = 10 µM, 72 h, prescreen; endpoint = viability reduction; result = 10%
Structure (SMILES) = COc1ccc(-n2nc(C(C)=O)s/c2=N\N=C(/C)c2ccc(NC(C)=O)cc2)cc1; target or system = WI-38; conditions = 1.25 µM; endpoint = toxicity; result = 96.8%
Structure (SMILES) = Cc1c2c(nn1C)CSCc1cc(n(C)n1)CSc1cc(c3ccccc3c1)OCCCc1c(C(=O)O)n(C)c3c-2c(Cl)ccc13; target or system = Staphylococcus aureus; assay = label-free quantitative proteomics, refers to: SAOUHSC_00659 protein; system = SA113; conditions = concentration not given; scale = reference: untreated control; endpoint = fold change; result = 15.6
Structure (SMILES) = CN1CCN(S(=O)(=O)c2cc([N+](=O)[O-])ccc2N(CCOS(C)(=O)=O)CCOS(C)(=O)=O)CC1; system = NSG mice, sample BD PDX; conditions = intraperitoneal, 25 mg/kg weekly x3; scale = reference: vehicle; endpoint = EFS delay (T-C); result = 1.6 days
Structure (SMILES) = CCCCC1(CCCC)CN(c2ccccc2)c2cc(SC)c(OCC(=O)N[C@@H](C(=O)NCC(=O)O)c3ccccc3)cc2S(=O)(=O)C1; assay = refers to: HDL cholesterol; system = human, serum; conditions = 5 mg once daily, day 9; endpoint = serum HDL-C; result = 48.3 mg/dL
Structure (SMILES) = COc1ccc(-c2cc(C(F)(F)F)c3c(N)c(C(=O)NC(C)C4CCCCC4)sc3n2)cc1 (stereo not shown); target or system = Mycobacterium tuberculosis; system = H37Rv wild type; scale = reference: HepG2 IC50 over M. tuberculosis IC90; endpoint = selectivity index; result = > 91
Structure (SMILES) = C[C@@H]1C[C@@]2(N=CCS2)[C@]2(O)O[C@@H]3C[C@@]4(C=O)[C@@H](CC[C@@H]5[C@@H]4CC[C@]4(C)[C@@H](C6=CC(=O)OC6)CC[C@]54O)C[C@H]3O[C@@H]2O1; target or system = Schistosoma mansoni; assay = microscopic viability score; system = adult worms; conditions = 10 µM, 24 h; endpoint = viability effect; result = 92%
Structure (SMILES) = CC[C@H](C)[C@@H]1NC(=O)[C@@H]2CCCN2C(=O)[C@H](CC(C)C)NC(=O)[C@H](CC(C)C)NC(=O)CNC(=O)[C@@H](NC(=O)[C@@H](NC(=O)[C@H](CC(=O)O)NC(=O)CNC(=O)[C@@H](NC(=O)[C@H](C)NC(=O)CNC(=O)[C@H](CCCCN)NC(=O)[C@H](CC(C)C)NC(=O)[C@H](CC(C)C)NC(=O)[C@H](CCCCN)NC(=O)CNC(=O)[C@@H](NC(=O)[C@@H](N)CC(C)C)C(C)C)C(C)C)C(C)C)CSSC[C@@H](C(=O)O)NC1=O; assay = RNA-seq, refers to: Ghrhr mRNA; system = mouse traumatic brain injury, frontal cortex and hippocampus; conditions = dose not given; scale = reference: TBI plus compound vs TBI; endpoint = log2 fold change; result = -6.68
Structure (SMILES) = CC[C@H](C)[C@H](NC(=O)[C@H](CCCCN)NC(=O)[C@@H](NC(=O)[C@@H](NC(=O)[C@H](CC(C)C)NC(=O)[C@H](CCCNC(=N)N)NC(=O)[C@@H](NC(=O)[C@H](CC(C)C)NC(=O)[C@H](CCCNC(=N)N)NC(=O)CNC(=O)[C@H](Cc1ccccc1)NC(=O)[C@@H](N)CCCNC(=N)N)[C@@H](C)CC)[C@@H](C)CC)C(C)C)C(=O)N[C@@H](C)C(=O)N[C@@H](CCCNC(=N)N)C(=O)N[C@@H](CCCNC(=N)N)C(=O)N[C@@H](C)C(=O)N[C@@H](Cc1c[nH]cn1)C(=O)N[C@@H](CCCNC(=N)N)C(=O)N[C@@H](C)C(=O)N[C@@H](CCCNC(=N)N)C(=O)N[C@@H](CO)C(=O)N[C@@H](C)C(=O)N[C@H](C(=O)N[C@@H](CCCCN)C(=O)N[C@@H](C)C(=O)N[C@@H](C)C(=O)N[C@@H](CO)C(=O)N[C@@H](CC(N)=O)C(=O)N[C@H](C(=O)N[C@@H](C)C(=O)N[C@@H](CCC(=O)O)C(=O)N[C@@H](CC(C)C)C(=O)N[C@@H](C)C(=O)N[C@@H](Cc1c[nH]cn1)C(=O)NCC(=O)N[C@@H](CCC(=O)O)C(=O)O)C(C)C)C(C)C; target or system = SH-SY5Y; assay = membrane disruption, propidium iodide uptake; conditions = 600 s, with: propidium iodide 50 µM; endpoint = EC50; result = 1870 ± 260 nM
Structure (SMILES) = COCC(=O)OCc1cc2[nH]c(=S)n(Cc3cccnc3)c(=O)c2cc1Cl; target or system = Mycobacterium tuberculosis; system = PptT conditional knockdown; endpoint = MIC90; result = 2.29 µM (≈ 0.929 µg/mL)
Structure (SMILES) = Nc1ncnc2c1ncn2[C@@H]1O[C@@H]2COP(=O)(O)O[C@H]3[C@@H](O)[C@H](n4cnc5c(=O)[nH]cnc54)O[C@@H]3COP(=O)(O)O[C@H]2[C@H]1O; target or system = HFF-1; assay = RNA sequencing, refers to: Reactome OAS antiviral response; conditions = upregulated pathways; scale = reference: mock; endpoint = fold enrichment; result = 31.6
Structure (SMILES) = COC(=O)c1ccc(C(=O)OC)nc1; target or system = Schistosoma mansoni; assay = microscopic viability scoring; system = newly transformed schistosomula; conditions = 10 µM, 72 h, prescreen; endpoint = viability reduction; result = 23.3%
Structure (SMILES) = COc1cc(CCC[P+](c2ccccc2)(c2ccccc2)c2ccccc2)c(OC)c2c1OCO2.[I-]; target or system = OVCAR-8; assay = SRB; endpoint = TGI; result = -4.62 log M
Structure (SMILES) = CCC(NC(=O)c1sc2nc(-c3ccc(OC)cc3)cc(C(F)(F)F)c2c1N)c1ccccc1 (stereo not shown); target or system = Mycobacterium tuberculosis; assay = growth inhibition; system = H37Rv LepB under-expressing; endpoint = IC50; result = 720 ± 200 nM

Some of these lines once more:
Structure (SMILES) = CN1CCN(S(=O)(=O)c2cc([N+](=O)[O-])ccc2N(CCOS(C)(=O)=O)CCOS(C)(=O)=O)CC1; system = NSG mice, sample BD PDX; conditions = intraperitoneal, 25 mg/kg weekly x3; scale = reference: vehicle; endpoint = EFS delay (T-C); result = 1.6 days
Structure (SMILES) = COc1c(C)c2c(c(O)c1C/C=C(\C)CCC(=O)O)C(=O)OC2; target or system = SF-268; assay = cell proliferation; system = brain cancer; endpoint = IC50; result = 575 nM
Structure (SMILES) = COc1c(CCC[P+](c2ccccc2)(c2ccccc2)c2ccccc2)cc2c(c1OC)OCO2.[I-]; target or system = HT-29; assay = SRB; endpoint = GI50; result = -5.97 log M
